Measurements of several laboratories.
Parts stem from different laboratories: compare values within a part only. Substitutions count along the parent as printed.

Sample 1
Target: RING finger protein unkempt homolog, zinc fingers 1-6, GST-SBP tag (UNK, Homo sapiens, UniProt Q9C0B0, residues 30-357)
Technique: RNA Bind-n-Seq
Molecule type: RNA
Sample: in vitro
Concentration: not given
Notes: RNA with constant flanks, human-mouse chimeric sites, ends assumed
Reference: input RNA pool
Direction: higher = stronger binding
Residues (chain): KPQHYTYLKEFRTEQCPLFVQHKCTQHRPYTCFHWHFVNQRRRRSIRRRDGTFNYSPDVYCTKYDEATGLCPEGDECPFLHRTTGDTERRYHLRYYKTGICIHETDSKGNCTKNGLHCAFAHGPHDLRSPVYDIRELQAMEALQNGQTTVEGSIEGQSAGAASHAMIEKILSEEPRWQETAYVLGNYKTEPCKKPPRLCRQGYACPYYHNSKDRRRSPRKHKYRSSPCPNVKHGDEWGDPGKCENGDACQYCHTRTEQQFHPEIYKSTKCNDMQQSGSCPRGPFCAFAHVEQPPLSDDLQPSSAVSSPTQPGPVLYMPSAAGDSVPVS
`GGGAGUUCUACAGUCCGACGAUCUCUUAACUUAUUCAUUUCUUAUUUUUAUAUAGCUAGAUAAAUAUUGUUAGUCUUAGACAAUAGCUCACAUUUUUUGAAAAGCAUGCUCUCCCUGUCCAUUUGUCUUAUAACAUGACCCAGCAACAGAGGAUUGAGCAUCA` has a bound/input enrichment of 167 ratio.
The bound/input enrichment of `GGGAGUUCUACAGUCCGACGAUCAACAGAUUGUCUUUAAGGUCAACGUAGGAGAAUGCUGGGGUGAUCAUUGUUGCCCAUGUGCCUUCUGACUGAGCUUUAAUGCUGUUCCAUGUUACAUUGAUGUUCUUCUCCAGAAUUGUUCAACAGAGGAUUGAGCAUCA` is reported as 0.0969 ratio.
With `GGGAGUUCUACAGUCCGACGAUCAUAAAGGCUAUGUUGAGUGGCCCAGGUCAGUUUGCUGAGAAUGAAACCAACGAGGUCAAUUUUAGAGAGAUACCUUCACAUGUGCUAUCAAAAGUGUGCAUGUAUUUUACCUACAAGGUCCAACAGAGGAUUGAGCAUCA` the bound/input enrichment was 0.125 ratio.
`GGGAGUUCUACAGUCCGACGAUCCAGUCCCCGUGUCCCAGUGCAGGACGAGAACAUGGACAACUCAAAGCGGACCCUCUAUUGUAGUUCUUUUUUUAAAUAAUGUGCUAUUAUUGUUUGUCUUUUUUUUUUUUUUUUUAAAGACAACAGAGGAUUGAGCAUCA` has a bound/input enrichment of 2.95 ratio.
With `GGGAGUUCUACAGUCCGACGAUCAUAGAUGAAAUUGAUGUGGACCAGGAAGGAAUUGCUGAAAUGAUCCUGGAUGAAAAUGCUAUUGCUCAGGUCCCACGCCCUGGAACGUCUUUGAAGCUCCCUGGAACUAACCAAACAGGACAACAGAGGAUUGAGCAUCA` the bound/input enrichment was 0.511 ratio.
`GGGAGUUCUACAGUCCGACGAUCGUAUUUGUGCGCUCCCCACUCGUGUUUGUAUUUUUAUUUUUAUAAGAUACAUGUAUUUACAAUUGAGCUUUUGUUACAUAAUGCUGAAAUGCUACUGGAGAUUAUGAAAAAUGUUUCAAUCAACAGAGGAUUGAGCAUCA` has a bound/input enrichment of 0.23 ratio.
For `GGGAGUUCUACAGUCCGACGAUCCGCUUGGAUGAGGCUGGUGUCACAGAUGAAGUGCUAGAUUCUGCCAUGCAAGCCUUCCUUCUGGAGGUCAUUGUUAAACAUGGGGAGCCGGCACCUUAUUUAUGUAAUAAAGAUCCUUUUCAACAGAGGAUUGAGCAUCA`, the bound/input enrichment was 0.142 ratio.
With `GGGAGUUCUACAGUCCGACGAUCGGACAUCUUGUCAGGAUUUAUGUUCCUGUGAAACAAGUGAACACUCUGAUACACUUCAUCUGCUUGUACAUCUGUAUGAUAGAGAAACAGAAAUCUAUUAAUCCAAGCAAUGUGUCACUUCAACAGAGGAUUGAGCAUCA` the bound/input enrichment was 0.0669 ratio.
With `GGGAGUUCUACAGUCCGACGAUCUUAAUCCCCUUUACUGCUCCCCCACUUCUCAUGGUAAUGACAAAAACUUAUAUCCCCGUCCUAGCUUUCACUCAGAUGGCUUAUGGAGCCGGUUUCCUAGCUUUCUUGGGAGGGAUCAGACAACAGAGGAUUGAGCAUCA` the bound/input enrichment was 0.453 ratio.
`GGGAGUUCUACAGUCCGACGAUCGGCCUGGACCUUCCUGGGGCUAGUACAAAUAGCGGCAGUGGAGGCUCAGAGGAAAGUUUUGUUAGUGGAGGCAGUGGUAGAGGCCGUCAUGUACGGUCCUUUACUCGAUAGAUGUGUUCUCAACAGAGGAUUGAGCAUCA` gave a bound/input enrichment of 0.354 ratio.
For `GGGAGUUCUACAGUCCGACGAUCUUGGAAGGACCAGAGCCUAAUCAACUGAAACCACUAGUCAUACAGGCUAUGCCCACCCUAAUAGAAUUAAUGAAAGACCCCAGUGUAGUUGUUCGAGACACAACAGCGUGGACUGUGGGCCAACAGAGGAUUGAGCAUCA`, the bound/input enrichment was 3.36 ratio.

Sample 2
Target: Ras GTPase-activating protein-binding protein 1, C-terminal RGG region (G3BP1, Homo sapiens, UniProt Q13283)
Sequence of UniProt Q13283 (whole entry, looked up): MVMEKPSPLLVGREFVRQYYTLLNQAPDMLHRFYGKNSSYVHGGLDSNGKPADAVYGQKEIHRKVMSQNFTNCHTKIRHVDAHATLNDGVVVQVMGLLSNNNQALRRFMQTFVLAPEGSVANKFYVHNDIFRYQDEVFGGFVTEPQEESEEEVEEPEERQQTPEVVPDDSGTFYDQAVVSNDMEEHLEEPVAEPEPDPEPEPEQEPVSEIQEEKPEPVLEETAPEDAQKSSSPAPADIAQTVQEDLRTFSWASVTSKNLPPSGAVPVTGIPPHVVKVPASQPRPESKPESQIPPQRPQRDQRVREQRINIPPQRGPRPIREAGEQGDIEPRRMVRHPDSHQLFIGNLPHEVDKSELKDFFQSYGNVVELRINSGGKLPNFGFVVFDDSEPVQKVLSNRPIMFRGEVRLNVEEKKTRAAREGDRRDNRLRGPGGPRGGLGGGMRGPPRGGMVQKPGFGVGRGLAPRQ
Technique: RNA Bind-n-Seq
Molecule type: RNA
Sample: in vitro
Concentration: 1 µM
Notes: whole 134-nt RNA, ends assumed
With: 150 mM KCl
Reference: input library
Direction: higher = stronger binding
`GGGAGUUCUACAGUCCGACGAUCGAGUCCGGUUCGUGUUCGUCCGCGGAGAUCUCUCUCAUCUCGCUCGGCUGCGGGAAAUCGGGCUGAAGCGACUGAGUCCGCGAUGGAGGUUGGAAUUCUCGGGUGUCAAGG` gave a log2 enrichment of -1.38.
`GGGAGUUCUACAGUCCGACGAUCCCUCAAGUCCUGUGCUACACAUCGUAUGUACCGAAUCGGGUGGGGUGGGUGGAAAGUAUUAUGUUACGCCGUUCGGAUCUGCACUUCCAGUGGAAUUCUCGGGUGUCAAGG` gave a log2 enrichment of 1.45.
`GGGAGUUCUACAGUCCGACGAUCUUUUCUUCUGGGGCAUUUAUCCGUGCUGAUCUUGGUGAAUGGGGCAUGAGUCUAACGAUCAGAGCCCCUAGUGUAGAUUACAGAAACACUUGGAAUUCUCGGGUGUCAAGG` has a log2 enrichment of -0.112.
For `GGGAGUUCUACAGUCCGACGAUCUGGCCCUGGUGGUAUGCGGGGAGGAAGAGGUGGCCUCAUGGAUCGUGGUGGUCCCGGUGGAAUGUUCAGAGGUGGCCGUGGUGGAGACAGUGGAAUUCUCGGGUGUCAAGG`, the log2 enrichment was 2.45.
The log2 enrichment of `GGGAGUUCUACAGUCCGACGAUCAGUCCUGUGCUACACAUCGUAUGUACCGAAUCGGCCCCGGGCCCCGGGGCCCCGGGGAAAGUAUUAUGUUACGCCGUUCGGAUCUGCACUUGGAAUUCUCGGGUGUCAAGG` is reported as -2.09.
The log2 enrichment of `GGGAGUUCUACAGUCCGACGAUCCUGUGCUACACAUCGUAUGUACCGAAUCGGGGUUUUUUUGGGGUUUUUUUGGGUUUUUUUGGAAAGUAUUAUGUUACGCCGUUCGGAUCUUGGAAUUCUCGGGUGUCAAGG` is reported as -0.979.
For `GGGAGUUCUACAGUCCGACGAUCCCUGUGCUACACAUCGUAUGUACCGAAUCGGGAAAAAAGGGAAAAAAGGGGAAAAAAGGGGAAAGUAUUAUGUUACGCCGUUCGGAUCUGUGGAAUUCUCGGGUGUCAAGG`, the log2 enrichment was -1.24.
With `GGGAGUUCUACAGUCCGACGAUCGGGGUGAGCACAGACAGGAUCGCAGGGAGAGGCCGUAUUAAUUAGCCUGGCUCCCCAGGUUCUGGAACAGCUUUUUGUCCUGUACCCAGUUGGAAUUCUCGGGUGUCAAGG` the log2 enrichment was 1.22.
With `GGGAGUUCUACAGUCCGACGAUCUCAAGUCCUGUGCUACACAUCGUAUGUACCGAAUCGGGGUUGGUUGGGGUUGGGAAAGUAUUAUGUUACGCCGUUCGGAUCUGCACUUCCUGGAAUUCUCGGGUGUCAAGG` the log2 enrichment was 0.106.
With `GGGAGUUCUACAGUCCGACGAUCGUCAAGAAAGAUCUUAAGACUGGUCAUUCAAAGGGGUUUGGCUUUGUUCGUUUUACGGAAUAUGAAACACAAGUGAAAGUAAUGUCACAGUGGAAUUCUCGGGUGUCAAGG` the log2 enrichment was -1.25.
With `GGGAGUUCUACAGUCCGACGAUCACCAUGCAGGUGGGCAUCUUUGGGAAGUGGGGCAAGGGGGAGAUAGGGAGGGGGGUAACACUUUGGGAACAGGUGGUCCCAGGUCGUUUCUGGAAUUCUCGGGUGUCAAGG` the log2 enrichment was 2.2.
The log2 enrichment of `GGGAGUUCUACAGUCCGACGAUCGCAGGAAGUAAAAACAAAUGGAAAUGCUUCGGAUAGUGGCAGGGGUGGGGGUUGCUAAGGAAAGGGUGGGAUGGGAGUGGGUAAAGAAAUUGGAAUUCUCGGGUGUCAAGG` is reported as 2.1.
The log2 enrichment of `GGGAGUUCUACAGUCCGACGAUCAGUCCUGUGCUACACAUCGUAUGUACCGAAUCAAAUUUUUAAAUUUAAAUUUUUAAAAAAGUAUUAUGUUACGCCGUUCGGAUCUGCACUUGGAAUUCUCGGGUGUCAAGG` is reported as -2.58.
The log2 enrichment of `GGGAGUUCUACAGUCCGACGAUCUUAGAAGAAGUGGAAAGGAAAAAACGCCAAAGGGAGUUGGAAAUUGAAGAACGAGAACGGCGUAGAGAGGAAGAGAGAAGACUUGGCGAUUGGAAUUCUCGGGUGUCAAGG` is reported as -0.295.

Sample 3
Target: ABI1, truncated, D143A, DHFR fusion (Arabidopsis thaliana)
Technique: DHFR PCA, deep sequencing
Sample: yeast
Notes: methotrexate growth selection, single substitutions
With: (+)-ABA 58 µM
Reference: wild-type fitted maximum
Direction: higher = stronger binding
Starting sequence: PYL1, truncated, DHFR fusion (Arabidopsis thaliana); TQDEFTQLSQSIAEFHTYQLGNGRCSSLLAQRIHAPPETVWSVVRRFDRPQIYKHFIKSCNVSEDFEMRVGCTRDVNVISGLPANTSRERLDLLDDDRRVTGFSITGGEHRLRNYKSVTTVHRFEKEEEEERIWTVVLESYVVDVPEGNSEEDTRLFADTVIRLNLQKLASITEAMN
`K58C` — result for “relative binding score”: 60.5%.
Under “relative binding score”, `R163L` is recorded as 40.4%.
For `G148S`, “relative binding score” read 67.9%.
Under “relative binding score”, `W41T` is recorded as -0.122%.
Under “relative binding score”, `E89L` is recorded as -3.84%.
Under “relative binding score”, `F56T` is recorded as -0.603%.
`R163Q`: “relative binding score” 75.2%.
`D159W` — result for “relative binding score”: -1.56%.
`H34G` — result for “relative binding score”: 75.9%.
`T120C`: “relative binding score” 7.17%.

Sample 4
Target: CCNF, cyclin fold, Cln2 fusion (human)
Technique: yeast growth competition, sequencing
Sample: yeast
Notes: strong parent motif
Reference: not given
Direction: higher = stronger binding
Starting sequence: PKMYT1 docking peptide (human); SFEPRNLLSLFED
For `IFEPRNLLSLFED [S1I]`, “normalised enrichment score” read 0.806.
`SFEPRNLLSLFEN [D13N]` — result for “normalised enrichment score”: 1.35.
`SFWPRNLLSLFED [E3W]` — result for “normalised enrichment score”: 1.49.
For `HFEPRNLLSLFED [S1H]`, “normalised enrichment score” read 1.24.
For `SYEPRNLLSLFED [F2Y]`, “normalised enrichment score” read 2.19.
Under “normalised enrichment score”, `YFEPRNLLSLFED [S1Y]` is recorded as 1.63.
Under “normalised enrichment score”, `SFEDRNLLSLFED [P4D]` is recorded as -0.773.
For `SFEPRNLLSLFEA [D13A]`, “normalised enrichment score” read 1.73.
`SFEPRNLLSLFEP [D13P]`: “normalised enrichment score” 0.445.
`SFEPRNLLVLFED [S9V]`: “normalised enrichment score” 1.35.
`SFEPRNLLSLFEH [D13H]` — result for “normalised enrichment score”: 1.25.
For `SFRPRNLLSLFED [E3R]`, “normalised enrichment score” read 1.37.
For `SFEPWNLLSLFED [R5W]`, “normalised enrichment score” read -2.13.
For `SFEPRNLLHLFED [S9H]`, “normalised enrichment score” read 1.2.
For `SFEPRNLLSLFRD [E12R]`, “normalised enrichment score” read 0.561.
For `SFEPRNLLLLFED [S9L]`, “normalised enrichment score” read 0.946.
For `SFEPRNLLSLLED [F11L]`, “normalised enrichment score” read 0.811.
For `SFEPRNLLSLFEI [D13I]`, “normalised enrichment score” read 1.83.
`SFEPRNLLCLFED [S9C]` — result for “normalised enrichment score”: -0.528.
Under “normalised enrichment score”, `SFEPRNLFSLFED [L8F]` is recorded as 1.19.
Under “normalised enrichment score”, `SFEPRNLLSLFND [E12N]` is recorded as 0.819.
`SFEPRNLLSPFED [L10P]`: “normalised enrichment score” -1.07.

Repeated from above (sample 3):
For `G148S`, “relative binding score” read 67.9%.
Under “relative binding score”, `W41T` is recorded as -0.122%.
Under “relative binding score”, `E89L` is recorded as -3.84%.
Under “relative binding score”, `F56T` is recorded as -0.603%.
`R163Q`: “relative binding score” 75.2%.
`D159W` — result for “relative binding score”: -1.56%.
